Published values collected from several papers.
Compare with care: the assays were run in different laboratories. Several values in a cell are separate wells, animals, samples, runs or records. ± gives the spread as reported.
gyrB with GyrA: DNA gyrase subunit B, with GyrA (gyrB, Mycobacterium tuberculosis, UniProt P9WG45)
Sequence of UniProt P9WG45 (whole entry, looked up): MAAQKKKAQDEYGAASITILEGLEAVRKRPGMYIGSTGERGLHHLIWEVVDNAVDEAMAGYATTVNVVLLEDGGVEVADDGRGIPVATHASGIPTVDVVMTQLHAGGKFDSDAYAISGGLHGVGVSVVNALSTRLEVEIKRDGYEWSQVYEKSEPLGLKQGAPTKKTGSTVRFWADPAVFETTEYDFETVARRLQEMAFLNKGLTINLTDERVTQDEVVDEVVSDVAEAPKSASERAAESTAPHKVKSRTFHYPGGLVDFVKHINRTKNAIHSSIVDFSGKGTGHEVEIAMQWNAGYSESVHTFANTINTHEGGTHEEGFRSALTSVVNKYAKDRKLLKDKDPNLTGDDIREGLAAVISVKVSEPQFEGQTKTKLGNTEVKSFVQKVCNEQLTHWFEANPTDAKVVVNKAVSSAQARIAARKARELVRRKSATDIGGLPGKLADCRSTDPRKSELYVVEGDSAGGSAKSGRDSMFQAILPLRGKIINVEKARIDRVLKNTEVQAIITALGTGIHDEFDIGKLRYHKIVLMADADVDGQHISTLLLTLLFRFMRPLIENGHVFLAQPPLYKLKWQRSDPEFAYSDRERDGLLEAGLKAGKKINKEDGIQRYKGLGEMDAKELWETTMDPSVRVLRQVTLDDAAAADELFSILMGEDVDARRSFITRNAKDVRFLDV
ARID1B: AT-rich interactive domain-containing protein 1B (ARID1B, Homo sapiens, UniProt Q8NFD5)
Sequence of UniProt Q8NFD5 (whole entry, looked up): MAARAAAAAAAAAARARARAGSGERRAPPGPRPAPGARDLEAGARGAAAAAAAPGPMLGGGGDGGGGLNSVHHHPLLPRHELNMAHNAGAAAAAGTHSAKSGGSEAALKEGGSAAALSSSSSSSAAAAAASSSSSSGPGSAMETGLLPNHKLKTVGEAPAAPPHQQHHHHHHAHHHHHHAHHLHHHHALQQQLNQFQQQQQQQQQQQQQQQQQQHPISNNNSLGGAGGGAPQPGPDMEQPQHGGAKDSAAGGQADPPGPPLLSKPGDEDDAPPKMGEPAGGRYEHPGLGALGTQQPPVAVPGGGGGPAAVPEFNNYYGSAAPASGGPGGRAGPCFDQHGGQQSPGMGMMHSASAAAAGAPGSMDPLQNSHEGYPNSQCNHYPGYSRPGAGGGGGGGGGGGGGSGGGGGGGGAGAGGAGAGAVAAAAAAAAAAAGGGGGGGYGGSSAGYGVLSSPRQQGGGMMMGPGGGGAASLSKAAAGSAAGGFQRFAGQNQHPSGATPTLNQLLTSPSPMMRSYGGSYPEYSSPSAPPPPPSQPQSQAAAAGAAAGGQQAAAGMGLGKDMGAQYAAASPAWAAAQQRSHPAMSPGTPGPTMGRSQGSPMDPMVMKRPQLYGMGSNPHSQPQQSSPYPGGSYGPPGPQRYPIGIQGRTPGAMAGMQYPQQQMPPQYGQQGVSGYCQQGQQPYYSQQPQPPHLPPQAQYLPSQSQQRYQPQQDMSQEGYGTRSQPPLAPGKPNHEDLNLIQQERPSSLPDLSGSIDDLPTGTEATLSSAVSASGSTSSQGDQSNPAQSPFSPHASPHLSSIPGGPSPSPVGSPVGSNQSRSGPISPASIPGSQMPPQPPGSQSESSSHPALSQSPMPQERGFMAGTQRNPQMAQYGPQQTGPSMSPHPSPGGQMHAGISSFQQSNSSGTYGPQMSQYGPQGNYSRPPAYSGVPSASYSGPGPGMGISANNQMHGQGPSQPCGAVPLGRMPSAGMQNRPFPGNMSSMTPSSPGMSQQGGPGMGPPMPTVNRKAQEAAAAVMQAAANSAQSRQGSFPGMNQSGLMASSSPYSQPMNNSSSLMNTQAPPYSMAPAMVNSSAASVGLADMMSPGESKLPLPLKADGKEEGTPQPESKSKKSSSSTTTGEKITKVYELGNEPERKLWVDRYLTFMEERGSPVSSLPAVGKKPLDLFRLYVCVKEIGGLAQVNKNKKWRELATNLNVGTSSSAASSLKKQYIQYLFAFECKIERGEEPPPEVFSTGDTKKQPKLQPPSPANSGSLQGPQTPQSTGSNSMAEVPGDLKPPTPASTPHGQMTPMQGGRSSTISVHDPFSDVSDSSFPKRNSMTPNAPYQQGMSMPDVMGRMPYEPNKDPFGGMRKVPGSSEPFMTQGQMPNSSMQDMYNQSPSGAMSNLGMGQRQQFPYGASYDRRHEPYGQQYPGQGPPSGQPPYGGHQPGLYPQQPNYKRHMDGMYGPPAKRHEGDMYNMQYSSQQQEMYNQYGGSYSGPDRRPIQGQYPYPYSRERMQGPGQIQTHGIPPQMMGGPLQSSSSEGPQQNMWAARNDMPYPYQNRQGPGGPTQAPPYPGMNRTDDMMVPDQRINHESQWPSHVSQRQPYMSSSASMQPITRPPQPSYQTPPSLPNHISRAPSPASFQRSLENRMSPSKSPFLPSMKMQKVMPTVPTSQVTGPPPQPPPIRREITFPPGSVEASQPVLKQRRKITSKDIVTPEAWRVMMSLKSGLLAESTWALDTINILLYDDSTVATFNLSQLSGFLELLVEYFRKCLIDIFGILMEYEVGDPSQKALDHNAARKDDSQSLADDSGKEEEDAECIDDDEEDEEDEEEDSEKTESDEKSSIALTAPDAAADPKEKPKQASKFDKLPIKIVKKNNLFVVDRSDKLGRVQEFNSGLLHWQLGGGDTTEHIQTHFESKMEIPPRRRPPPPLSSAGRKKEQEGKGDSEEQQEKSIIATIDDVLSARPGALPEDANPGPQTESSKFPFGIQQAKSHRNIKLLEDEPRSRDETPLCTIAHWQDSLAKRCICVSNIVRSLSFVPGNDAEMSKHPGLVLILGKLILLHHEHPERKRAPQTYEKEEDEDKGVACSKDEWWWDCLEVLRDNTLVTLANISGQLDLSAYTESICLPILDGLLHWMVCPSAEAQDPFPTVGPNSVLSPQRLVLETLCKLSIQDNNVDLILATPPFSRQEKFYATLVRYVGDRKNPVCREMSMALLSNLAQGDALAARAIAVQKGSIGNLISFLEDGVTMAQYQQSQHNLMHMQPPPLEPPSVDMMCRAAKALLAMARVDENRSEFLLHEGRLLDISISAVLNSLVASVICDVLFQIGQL
Sequence of UniProt Q9TUI8 (whole entry, looked up): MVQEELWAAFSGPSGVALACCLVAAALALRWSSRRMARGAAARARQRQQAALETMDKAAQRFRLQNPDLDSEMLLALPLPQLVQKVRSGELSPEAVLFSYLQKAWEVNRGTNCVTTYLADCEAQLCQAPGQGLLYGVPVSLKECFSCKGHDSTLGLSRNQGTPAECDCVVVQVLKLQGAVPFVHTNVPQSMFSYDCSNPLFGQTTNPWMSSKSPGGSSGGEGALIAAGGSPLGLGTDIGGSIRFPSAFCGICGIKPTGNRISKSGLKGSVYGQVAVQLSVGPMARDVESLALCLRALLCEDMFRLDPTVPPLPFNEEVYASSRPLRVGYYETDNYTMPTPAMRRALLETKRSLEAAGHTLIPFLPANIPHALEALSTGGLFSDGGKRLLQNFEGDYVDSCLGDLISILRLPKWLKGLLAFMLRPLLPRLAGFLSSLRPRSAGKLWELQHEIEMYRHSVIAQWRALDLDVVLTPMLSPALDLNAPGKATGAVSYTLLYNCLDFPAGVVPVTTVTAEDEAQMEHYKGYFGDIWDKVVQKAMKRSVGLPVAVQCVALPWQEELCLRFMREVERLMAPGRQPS
Sequence of UniProt Q8NER1 (whole entry, unmodified, looked up): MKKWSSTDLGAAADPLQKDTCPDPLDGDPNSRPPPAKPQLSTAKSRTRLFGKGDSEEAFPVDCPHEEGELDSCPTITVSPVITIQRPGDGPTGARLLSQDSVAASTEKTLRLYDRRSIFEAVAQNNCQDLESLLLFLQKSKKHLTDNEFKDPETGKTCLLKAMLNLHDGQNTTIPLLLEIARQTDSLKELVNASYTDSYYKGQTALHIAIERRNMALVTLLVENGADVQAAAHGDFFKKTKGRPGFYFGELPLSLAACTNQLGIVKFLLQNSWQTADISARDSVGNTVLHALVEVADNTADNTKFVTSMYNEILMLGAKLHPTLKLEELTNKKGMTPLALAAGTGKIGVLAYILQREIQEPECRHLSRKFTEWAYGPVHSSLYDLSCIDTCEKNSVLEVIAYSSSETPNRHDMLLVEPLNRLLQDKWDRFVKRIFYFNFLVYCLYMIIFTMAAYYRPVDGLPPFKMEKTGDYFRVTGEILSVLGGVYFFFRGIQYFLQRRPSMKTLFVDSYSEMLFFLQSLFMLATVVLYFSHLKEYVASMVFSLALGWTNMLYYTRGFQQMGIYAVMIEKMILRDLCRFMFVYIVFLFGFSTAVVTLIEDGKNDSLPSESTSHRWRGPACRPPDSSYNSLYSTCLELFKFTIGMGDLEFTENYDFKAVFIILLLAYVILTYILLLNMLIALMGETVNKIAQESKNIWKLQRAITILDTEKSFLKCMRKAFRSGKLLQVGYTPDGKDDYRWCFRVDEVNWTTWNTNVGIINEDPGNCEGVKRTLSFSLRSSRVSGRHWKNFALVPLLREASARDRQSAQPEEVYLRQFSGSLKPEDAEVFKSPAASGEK

The IC50 of CC1=C[C@H]2c3c(O)cc(CCc4ccccc4)cc3OC(C)(C)[C@@H]2CC1 is reported as 43.6 ± 3.5 µM (FAAH (Sus scrofa, UniProt Q9TUI8); inhibitor).
Cc1cc(C)cc(NC(=O)CCc2c(C(=O)Nc3cc(C)cc(C)c3)[nH]c3ccc(Cl)cc23)c1 gave an IC50 of 13.5 µM (gyrB with GyrA).
The IC50 of CC(C)CC(C(=O)N1CC2(CC1C#N)C(=O)Nc1ccccc12)N(C)C(=O)c1cc2c(F)cc(F)c(F)c2[nH]1 (stereo not shown) is reported as greater than 100 µM (ACE2 (Homo sapiens, UniProt Q9BYF1); enzyme activity, inhibitor).
With CC(C)C[C@@H]1NC(=O)CN(C)C(=O)[C@H](Cc2c[nH]c3ccccc23)NC(=O)[C@H](CCC(=O)O)NC(=O)[C@H](Cc2ccccc2)N(C)C(=O)[C@H](Cc2ccccc2)NC(=O)CSC[C@@H](C(N)=O)NC(=O)[C@H](CCCCN)NC(=O)[C@H](C(C)C)NC(=O)[C@H](Cc2ccc(O)cc2)NC(=O)[C@H](C)NC(=O)[C@H](C(C)C)NC(=O)[C@H](Cc2ccccc2)N(C)C(=O)[C@H](CCCNC(=N)N)NC1=O the IC50 was 0.04 µM (ARID1B; binding, TR-FRET competition; 1% DMSO).
CCn1ccc(-c2cc([C@@H](C)NC(=O)c3cc(OCCN(C)C)ccc3C)c3ccccc3n2)n1 gave a viability of 47.5% and 71.5% and 55.5% (Vero E6; 31.25 µM).
The IC50 of O=C(CCc1c(C(=O)Nc2ccncc2)[nH]c2ccc(Cl)cc12)Nc1ccncc1 is reported as 21.3 µM (gyrB with GyrA).
CC(C)C[C@@H]1NC(=O)CN(C)C(=O)[C@H](Cc2c[nH]c3ccccc23)NC(=O)[C@H](CCC(=O)O)NC(=O)[C@H](Cc2ccccc2)N(C)C(=O)[C@H](Cc2ccccc2)NC(=O)CSC[C@@H](C(N)=O)NC(=O)[C@H](CCCCN)NC(=O)[C@H](C(C)C)NC(=O)[C@H](Cc2ccc(O)cc2)NC(=O)[C@H](Cc2ccc(O)cc2)NC(=O)[C@H](C)NC(=O)[C@H](Cc2ccccc2)N(C)C(=O)[C@H](CCCNC(=N)N)NC1=O gave an IC50 of 0.01 µM (ARID1B; binding, TR-FRET competition; 1% DMSO).
For CC(C)c1nc2cc(O)ccc2c(=O)n1-c1ccc(C#N)cc1, the IC50 was 4.02 µM (TRPV1 (Homo sapiens, UniProt Q8NER1, Y511F); ion current, antagonist, whole-cell patch clamp; mutant Y511F, +80 mV, together with: pH 5 stimulus).
CC(C)C[C@@H]1NC(=O)CN(C)C(=O)[C@H](Cc2c[nH]c3ccccc23)NC(=O)[C@H](CCC(=O)O)NC(=O)[C@H](Cc2ccccc2)N(C)C(=O)[C@H](Cc2ccc(N=[N+]=[N-])cc2)NC(=O)CSC[C@@H](C(N)=O)NC(=O)[C@H](CCCCN)NC(=O)[C@H](C(C)C)NC(=O)[C@H](Cc2ccc(O)cc2)NC(=O)[C@H](Cc2ccc(O)cc2)NC(=O)[C@H](C(C)C)NC(=O)[C@H](Cc2ccccc2)N(C)C(=O)[C@H](CCCNC(=N)N)NC1=O has an IC50 of 0.02 µM (ARID1B; binding, TR-FRET competition; 1% DMSO).
For O=C(CCc1c(C(=O)Nc2ccccc2)[nH]c2ccc(Cl)cc12)Nc1ccccc1, the IC50 was 23.4 µM (gyrB with GyrA).
With O=C(c1ccc(N=S(=O)(F)N2Cc3cccnc3C2)cc1Cl)N1CCO[C@@H](c2ccccc2)C1 (stereo partly shown) the IC50 was 0.22 µM (Hemagglutinin (HA, Influenza A virus, UniProt P03452); A/Puerto Rico/8/1934).
The IC50 of O=C(CCc1c(C(=O)Nc2ccc(F)cc2)[nH]c2ccc(Cl)cc12)Nc1ccc(F)cc1 is reported as 8.4 µM (gyrB with GyrA).
With Cc1ccc(N2CCC3(CC2)CN(C)C3)cc1C(=O)N[C@H](C)c1cc(-c2cnn(C)c2)nc2ccccc12 the viability was 3.04% and 2.68% and 3.75% (Vero E6; 125 µM).
With O=C1NC2(CC2)COc2ncc(F)cc2[C@H]2COCCN2c2ccn3ncc1c3n2 the organ weight was 1.73 ± 0.736 g (Sprague-Dawley rat, male, spleen; oral, 10 mg/kg/day, 4 weeks).
CC(C)C[C@@H]1NC(=O)[C@H](C)N(C)C(=O)[C@H](Cc2c[nH]c3ccccc23)NC(=O)[C@H](CCC(=O)O)NC(=O)[C@H](Cc2ccccc2)N(C)C(=O)[C@H](Cc2ccccc2)NC(=O)CSC[C@@H](C(N)=O)NC(=O)[C@H](CCCCN)NC(=O)[C@H](C(C)C)NC(=O)[C@H](Cc2ccc(O)cc2)NC(=O)[C@H](Cc2ccc(O)cc2)NC(=O)[C@H](C(C)C)NC(=O)[C@H](Cc2ccccc2)N(C)C(=O)[C@H](CCCNC(=N)N)NC1=O gave an IC50 of greater than 1 µM (ARID1B; binding, TR-FRET competition; 1% DMSO).
For N=C(N)NCCC[C@@H]1NC(=O)[C@H](CCCCNC(=O)CCC(NC(=S)Nc2ccc(CC3CN(CC(=O)O)CCN(CC(=O)O)CCN(CC(=O)O)CCN3CC(=O)O)cc2)C(=O)NCCCC[C@@H]2NC(=O)[C@@H](Cc3ccc(O)cc3)NC(=O)[C@H](CC(=O)O)NC(=O)CNC(=O)[C@H](CCCNC(=N)N)NC2=O)NC(=O)[C@@H](Cc2ccc(O)cc2)NC(=O)[C@H](CC(=O)O)NC(=O)CNC1=O (stereo partly shown) [scandium-44 labelled], the tissue uptake was 0.03 ± 0.01 %ID/g (PET imaging ROI; female athymic nude mice, U-87 MG xenograft, muscle; intravenous, 4 h, together with: cRGD 50 mg/kg blocking).

Repeated from above:
CC(C)C[C@@H]1NC(=O)[C@H](C)N(C)C(=O)[C@H](Cc2c[nH]c3ccccc23)NC(=O)[C@H](CCC(=O)O)NC(=O)[C@H](Cc2ccccc2)N(C)C(=O)[C@H](Cc2ccccc2)NC(=O)CSC[C@@H](C(N)=O)NC(=O)[C@H](CCCCN)NC(=O)[C@H](C(C)C)NC(=O)[C@H](Cc2ccc(O)cc2)NC(=O)[C@H](Cc2ccc(O)cc2)NC(=O)[C@H](C(C)C)NC(=O)[C@H](Cc2ccccc2)N(C)C(=O)[C@H](CCCNC(=N)N)NC1=O gave an IC50 of greater than 1 µM (ARID1B; binding, TR-FRET competition; 1% DMSO).
